# Experimental data collected from several papers.
# Protocols differ between the studies behind these lines. Values joined by “and” are separate records of one study, mostly repeats; a detail may differ. ± marks the error that the study gave.
# ATM: Serine-protein kinase ATM (ATM, Homo sapiens, UniProt Q13315)
# Dipeptidyl peptidase 8: Dipeptidyl peptidase 8 (Homo sapiens, UniProt Q6V1X1)
# Chain of UniProt Q6V1X1 (whole entry, looked up): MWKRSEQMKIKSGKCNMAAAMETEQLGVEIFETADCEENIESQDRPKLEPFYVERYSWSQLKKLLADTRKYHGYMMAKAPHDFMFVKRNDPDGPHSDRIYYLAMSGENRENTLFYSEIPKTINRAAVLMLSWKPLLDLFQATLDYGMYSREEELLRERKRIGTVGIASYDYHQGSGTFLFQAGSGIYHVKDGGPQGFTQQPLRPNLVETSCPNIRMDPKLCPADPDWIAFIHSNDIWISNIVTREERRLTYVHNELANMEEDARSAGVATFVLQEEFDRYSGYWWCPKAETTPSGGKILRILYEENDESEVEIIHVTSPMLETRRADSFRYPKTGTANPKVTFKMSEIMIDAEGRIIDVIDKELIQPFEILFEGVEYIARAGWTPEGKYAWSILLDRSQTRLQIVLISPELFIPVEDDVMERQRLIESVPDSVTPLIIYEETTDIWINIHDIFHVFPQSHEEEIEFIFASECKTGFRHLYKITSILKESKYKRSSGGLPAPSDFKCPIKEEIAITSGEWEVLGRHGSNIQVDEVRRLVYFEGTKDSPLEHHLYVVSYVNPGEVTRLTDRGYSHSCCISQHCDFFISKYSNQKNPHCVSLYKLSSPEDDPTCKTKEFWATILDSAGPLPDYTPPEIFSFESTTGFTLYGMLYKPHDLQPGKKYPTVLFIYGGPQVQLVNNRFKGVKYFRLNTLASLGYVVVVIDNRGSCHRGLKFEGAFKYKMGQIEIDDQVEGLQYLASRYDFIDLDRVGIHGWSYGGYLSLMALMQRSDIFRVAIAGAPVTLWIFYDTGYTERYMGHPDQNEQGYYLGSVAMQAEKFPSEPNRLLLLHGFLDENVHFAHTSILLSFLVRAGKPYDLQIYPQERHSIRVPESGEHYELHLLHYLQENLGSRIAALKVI
# Astl: Astacin-like metalloendopeptidase (Astl, Mus musculus, UniProt Q6HA09)
# Chain of UniProt Q6HA09 (whole entry, looked up): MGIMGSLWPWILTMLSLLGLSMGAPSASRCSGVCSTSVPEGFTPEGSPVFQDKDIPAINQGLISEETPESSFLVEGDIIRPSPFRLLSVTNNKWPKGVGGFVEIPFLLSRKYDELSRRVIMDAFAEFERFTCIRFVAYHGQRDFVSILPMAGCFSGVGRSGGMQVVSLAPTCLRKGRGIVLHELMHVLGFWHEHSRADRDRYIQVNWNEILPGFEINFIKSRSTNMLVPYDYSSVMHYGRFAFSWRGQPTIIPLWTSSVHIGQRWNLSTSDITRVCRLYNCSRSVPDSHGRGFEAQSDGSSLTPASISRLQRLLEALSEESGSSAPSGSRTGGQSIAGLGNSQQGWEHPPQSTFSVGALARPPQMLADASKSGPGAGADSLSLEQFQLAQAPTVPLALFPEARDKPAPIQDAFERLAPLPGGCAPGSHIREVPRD
# rhodesain: Rhodesain (rhodesain, Trypanosoma brucei rhodesiense, UniProt Q95PM0)
# IL1RL2: Interleukin-1 receptor-like 2 (IL1RL2, Homo sapiens, UniProt Q9HB29)
# Chain of UniProt P28482 (whole entry, looked up): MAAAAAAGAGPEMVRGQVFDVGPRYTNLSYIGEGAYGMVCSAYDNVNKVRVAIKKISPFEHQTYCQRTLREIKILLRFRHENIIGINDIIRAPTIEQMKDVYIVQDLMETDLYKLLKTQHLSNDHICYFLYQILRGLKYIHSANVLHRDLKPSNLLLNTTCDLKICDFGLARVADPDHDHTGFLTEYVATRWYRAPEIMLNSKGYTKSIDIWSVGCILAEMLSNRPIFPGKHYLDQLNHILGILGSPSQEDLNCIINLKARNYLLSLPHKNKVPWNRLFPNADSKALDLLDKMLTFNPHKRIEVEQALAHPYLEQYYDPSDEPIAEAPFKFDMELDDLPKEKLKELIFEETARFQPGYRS
# Chain of UniProt Q9HB29 (whole entry, looked up): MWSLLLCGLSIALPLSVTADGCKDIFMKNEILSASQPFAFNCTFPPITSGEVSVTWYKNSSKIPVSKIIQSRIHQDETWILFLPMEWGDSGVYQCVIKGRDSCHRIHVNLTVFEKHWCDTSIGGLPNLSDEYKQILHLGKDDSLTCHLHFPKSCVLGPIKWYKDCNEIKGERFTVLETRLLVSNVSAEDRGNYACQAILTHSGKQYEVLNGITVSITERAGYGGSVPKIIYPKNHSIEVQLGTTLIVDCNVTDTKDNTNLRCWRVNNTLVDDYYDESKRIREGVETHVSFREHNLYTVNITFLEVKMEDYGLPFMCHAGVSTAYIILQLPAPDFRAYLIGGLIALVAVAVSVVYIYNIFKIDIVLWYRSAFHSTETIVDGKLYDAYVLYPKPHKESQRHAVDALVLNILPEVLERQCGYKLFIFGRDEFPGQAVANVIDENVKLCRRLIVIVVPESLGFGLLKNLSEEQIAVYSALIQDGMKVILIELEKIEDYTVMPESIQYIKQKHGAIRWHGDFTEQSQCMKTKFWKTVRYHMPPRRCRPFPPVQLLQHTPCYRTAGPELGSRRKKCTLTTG
# Chain of UniProt Q99986 (whole entry, looked up): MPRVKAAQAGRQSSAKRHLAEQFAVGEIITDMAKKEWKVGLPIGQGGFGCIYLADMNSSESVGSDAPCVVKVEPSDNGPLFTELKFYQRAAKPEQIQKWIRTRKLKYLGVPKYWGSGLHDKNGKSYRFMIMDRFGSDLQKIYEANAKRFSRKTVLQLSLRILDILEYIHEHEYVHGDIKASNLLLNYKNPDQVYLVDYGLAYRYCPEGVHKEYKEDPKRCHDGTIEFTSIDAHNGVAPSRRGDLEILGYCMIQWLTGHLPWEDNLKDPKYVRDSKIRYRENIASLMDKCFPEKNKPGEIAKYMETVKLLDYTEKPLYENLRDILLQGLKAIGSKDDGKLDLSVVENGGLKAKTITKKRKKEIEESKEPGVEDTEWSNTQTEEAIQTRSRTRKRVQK
# Chain of UniProt P45983 (whole entry, looked up): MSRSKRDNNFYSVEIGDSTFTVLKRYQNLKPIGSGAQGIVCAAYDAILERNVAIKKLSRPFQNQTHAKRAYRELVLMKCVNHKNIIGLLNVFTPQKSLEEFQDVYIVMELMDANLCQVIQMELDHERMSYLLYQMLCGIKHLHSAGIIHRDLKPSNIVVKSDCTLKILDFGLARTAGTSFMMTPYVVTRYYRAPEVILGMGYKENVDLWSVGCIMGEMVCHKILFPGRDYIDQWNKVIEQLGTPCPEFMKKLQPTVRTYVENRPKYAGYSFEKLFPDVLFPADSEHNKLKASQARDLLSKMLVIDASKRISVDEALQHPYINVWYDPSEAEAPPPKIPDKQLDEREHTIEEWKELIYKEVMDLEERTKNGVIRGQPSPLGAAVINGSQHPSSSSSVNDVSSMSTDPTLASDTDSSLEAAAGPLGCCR
# Chain of UniProt P22894 (whole entry, looked up): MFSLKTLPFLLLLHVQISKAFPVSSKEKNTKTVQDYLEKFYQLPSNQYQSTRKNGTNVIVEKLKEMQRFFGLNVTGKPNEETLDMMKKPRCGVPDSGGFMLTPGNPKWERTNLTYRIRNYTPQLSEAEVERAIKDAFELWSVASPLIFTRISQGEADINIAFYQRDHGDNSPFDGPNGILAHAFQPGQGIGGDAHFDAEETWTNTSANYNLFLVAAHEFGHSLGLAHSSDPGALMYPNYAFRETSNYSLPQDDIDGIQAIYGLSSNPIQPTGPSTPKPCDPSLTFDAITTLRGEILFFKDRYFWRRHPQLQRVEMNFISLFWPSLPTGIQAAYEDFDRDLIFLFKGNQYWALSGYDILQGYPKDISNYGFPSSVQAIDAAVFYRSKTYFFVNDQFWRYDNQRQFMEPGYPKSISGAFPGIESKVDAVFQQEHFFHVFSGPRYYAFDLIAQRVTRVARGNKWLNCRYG
# Chain of UniProt Q14191 (500-946, looked up): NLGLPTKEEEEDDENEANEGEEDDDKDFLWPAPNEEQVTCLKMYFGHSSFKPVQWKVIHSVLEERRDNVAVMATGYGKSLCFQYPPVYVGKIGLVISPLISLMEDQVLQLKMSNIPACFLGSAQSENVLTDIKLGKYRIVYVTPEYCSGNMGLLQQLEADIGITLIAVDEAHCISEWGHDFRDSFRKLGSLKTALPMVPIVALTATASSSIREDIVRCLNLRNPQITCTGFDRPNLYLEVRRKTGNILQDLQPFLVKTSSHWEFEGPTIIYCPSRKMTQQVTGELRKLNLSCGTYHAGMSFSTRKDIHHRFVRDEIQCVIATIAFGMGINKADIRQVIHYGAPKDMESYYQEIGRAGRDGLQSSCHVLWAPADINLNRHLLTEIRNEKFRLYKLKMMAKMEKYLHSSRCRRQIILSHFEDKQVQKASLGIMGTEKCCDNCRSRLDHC
SMILES,target,assay,system,setting,how to read,remaining activity
COc1ccc(NC(=O)c2c(Nc3ccccc3)sc(C(=O)N/N=C/c3ccc(OC)c(OC)c3)c2NC(C)=O)cc1,"KDR (Homo sapiens, UniProt P35968)","enzyme activity, inhibitor",,0.1 µM,,81.3%
O=c1c(-c2ccc(Cl)c(CN3CCOCC3)c2)coc2cc(O)ccc12,ATM,"enzyme activity, inhibitor",,1 µM,,83%
CCC1(CC)C(=O)N(c2cccc(CN3CCN(Cc4ccc5ccc6cccc7ccc4c5c67)CC3)c2)C1=O,Dipeptidyl peptidase 8,"enzyme activity, inhibitor",,5 µM,,> 90%
O=C(CCN(Cc1cccnc1)Cc1cccnc1)NO,Astl,"enzyme activity, inhibitor, fluorogenic",,0.25 µM,,98 ± 5%
COC(=O)[C@@]1(C(C)C)C=C(C(=O)Nc2cccc(C(=O)Nc3ccc(Nc4nccc(-c5cccnc5)n4)c(C)c3)c2)C(=O)CC1,"MAPK8 (Homo sapiens, UniProt P45983)","kinase activity, inhibitor",,"0.002258 µM, unit not given, with: 10 mM glutathione",reference: no inhibitor,1.01
COc1ccccc1-c1ccncc1C(=O)Nc1nnc(OCc2ccc(Cl)cc2)s1,"Bifunctional 3'-5' exonuclease/ATP-dependent helicase WRN, residues 500-946 (WRN, Homo sapiens, UniProt Q14191)","ATPase activity, ADP-Glo",,30 µM,reference: 0 µM cpd,97%
COC(=O)CN1CCCc2cc3cc(C(=O)NC(Cc4cccc(Cl)c4)C(=O)NCC=CS(=O)(=O)c4ccccc4)c(=O)oc3cc21 (stereo not shown),rhodesain,"enzyme activity, inhibitor, fluorescence",,5 µM,,31%
O=C(CN(Cc1cccc(C(=O)O)c1)Cc1cccc(C(=O)O)c1)NO,Astl,"enzyme activity, inhibitor, fluorogenic",,5 µM,,42 ± 3%
Cc1cc(NC(=O)c2cccc(NC(=O)/C(C#N)=C/C(C)(C)C)c2)ccc1Nc1nccc(-c2cccnc2)n1,"Mitogen-activated protein kinase 8, phosphorylated (MAPK8, Homo sapiens, UniProt P45983)","enzyme activity after dialysis, inhibitor",,"10 µM, 4 days, unit not given",reference: no inhibitor,0.816
CC(C)[C@@H]1NC(=O)[C@H](Cc2ccccc2)NC(=O)CSC[C@@H](C(N)=O)NC(=O)[C@H](CCC(=O)O)NC(=O)[C@H](CO)NC(=O)[C@H](Cc2c[nH]c3cccc(Cl)c23)NC(=O)[C@H](C2CCCCC2)NC(=O)[C@H](C(C)C)NC(=O)[C@H](Cc2ccc(O)cc2)NC(=O)[C@H](CC(=O)O)NC(=O)[C@H](Cc2c[nH]c3ccccc23)NC(=O)[C@H](Cc2ccc(N)nc2)NC(=O)[C@H](Cc2c[nH]c3ccc(Cl)cc23)NC(=O)[C@H](CCC(=O)O)NC1=O,IL1RL2,"reporter gene (SEAP), inhibitor, HEK-Blue IL-36R reporter",HEK-Blue IL-36R cells,"0.41 µM, 6 h, with: IL-36γ 0.1 ng/mL",,7.9%
CN(Cc1cc(C2CC2)on1)C(=O)c1cccc(-c2ccc3c(c2)CCO3)c1,"Acetyl-CoA synthetase (Cryptococcus neoformans, UniProt J9VFT1)","enzyme activity, inhibitor, coupled pyrophosphate",,244 nM,,91.9% and 106%
COCC12C(=O)NC3C4(C(OC)CC1O)C1CC5(O)C(OC)C(O)C(OC(C)=O)(C1C5OC(=O)c1ccccc1)C3(O)C(OC)C24 (stereo not shown),"VRK1 (Homo sapiens, UniProt Q99986)","kinase activity, inhibitor, ProQinase kinase profiling",,25 µM,reference: control,101% and 109%
COc1cc(Nc2nc(C)cc(-c3cnn4nc(OC)ccc34)n2)cc(C(F)(F)F)c1,"LRRK2 (Homo sapiens, UniProt Q5S007)",inhibitor,,1 µM,reference: control,100%
COc1c(Cl)ccc(CN(CCC(=O)NO)Cc2ccc(Cl)c(OC)c2F)c1F,Astl,"enzyme activity, inhibitor, fluorogenic",,0.25 µM,,62 ± 5%
C[C@](C(=O)NC1CCOCC1)(c1cncnc1)N(C(=O)[C@H](F)Cl)c1ccc(OC(F)(F)Cl)cc1,"MMP8 (Homo sapiens, UniProt P22894)","enzyme activity, inhibitor",,10 µM,,106%
O=C(CN(Cc1cccc(C(=O)O)c1)Cc1ccc2c(c1)OCO2)NO,Astl,"enzyme activity, inhibitor, fluorogenic",,0.25 µM,,96 ± 4%
COC(=O)[C@@]1(C)C=C(C(=O)Nc2cccc(C(=O)Nc3ccc(Nc4nccc(-c5cccnc5)n4)c(C)c3)c2)C(=O)CC1,"MAPK1 (Homo sapiens, UniProt P28482)","enzyme activity, inhibitor",,"44.44 µM, unit not given",reference: vehicle,0.583 and 0.669 and 0.622
O=C(CN(Cc1ccc2c(c1)OCO2)Cc1ccc2c(c1)OCO2)NO,Astl,"enzyme activity, inhibitor, fluorogenic",,5 µM,,29 ± 5%
CCC1(CC)C(=O)N(c2cccc(CN3CCN(Cc4cccc5cccnc45)CC3)c2)C1=O,Dipeptidyl peptidase 8,"enzyme activity, inhibitor",,5 µM,,16%
O=C(CCN(Cc1ccc(Cl)c(O)c1F)Cc1ccc(Cl)c(O)c1F)NO,Astl,"enzyme activity, inhibitor, fluorogenic",,5 µM,,5 ± 2%
CC(=O)N1c2ccc(-c3ccc(CNC(=O)c4cn5cc(-c6cnc(N)nc6)nc(N6CCOCC6)c5n4)cc3)cc2CC[C@@H]1C,ATM,"enzyme activity, inhibitor, radiometric",,10 µM,,95%
COc1ccc(CN(CC(=O)NO)Cc2cccc(C(=O)O)c2)cc1,Astl,"enzyme activity, inhibitor, fluorogenic",,5 µM,,67 ± 4%
COC(=O)c1cc2cc3c(cc2oc1=O)N(CC(=O)NC(Cc1ccc(C)cc1)C(=O)NCC=CS(=O)(=O)c1ccccc1)CCC3 (stereo not shown),rhodesain,"enzyme activity, inhibitor, fluorescence",,5 µM,,60%
O=C(CN(Cc1ccc(Cl)c(O)c1F)Cc1ccc(Cl)c(O)c1F)NO,Astl,"enzyme activity, inhibitor, fluorogenic",,5 µM,,20 ± 5%
N#Cc1cnc2sc(C(=O)O)cc2c1N1CCc2[nH]nc(C(=O)N[C@@H](CC(=O)NCCOCCN3CCOCC3)c3cccc(Br)c3)c2C1,IL1RL2,"SEAP reporter gene, antagonist",HEK-Blue IL-36R cells,"0.046 µM, 6 h, with: IL-36β 0.003 ng/mL",reference: untreated,103%

# A few entries again:
SMILES,target,assay,system,setting,how to read,remaining activity
COC(=O)[C@@]1(C)C=C(C(=O)Nc2cccc(C(=O)Nc3ccc(Nc4nccc(-c5cccnc5)n4)c(C)c3)c2)C(=O)CC1,"MAPK1 (Homo sapiens, UniProt P28482)","enzyme activity, inhibitor",,"44.44 µM, unit not given",reference: vehicle,0.583 and 0.669 and 0.622
O=C(CN(Cc1ccc2c(c1)OCO2)Cc1ccc2c(c1)OCO2)NO,Astl,"enzyme activity, inhibitor, fluorogenic",,5 µM,,29 ± 5%
CCC1(CC)C(=O)N(c2cccc(CN3CCN(Cc4cccc5cccnc45)CC3)c2)C1=O,Dipeptidyl peptidase 8,"enzyme activity, inhibitor",,5 µM,,16%
